Values quoted from earlier work, collected from citations in different studies.
Protocols differ between the studies behind these lines. Numbers after ± are the reported error.
HRH2: Histamine H2 receptor (HRH2, Homo sapiens, UniProt P25021)
UniProt P25021, sequence (whole entry, looked up): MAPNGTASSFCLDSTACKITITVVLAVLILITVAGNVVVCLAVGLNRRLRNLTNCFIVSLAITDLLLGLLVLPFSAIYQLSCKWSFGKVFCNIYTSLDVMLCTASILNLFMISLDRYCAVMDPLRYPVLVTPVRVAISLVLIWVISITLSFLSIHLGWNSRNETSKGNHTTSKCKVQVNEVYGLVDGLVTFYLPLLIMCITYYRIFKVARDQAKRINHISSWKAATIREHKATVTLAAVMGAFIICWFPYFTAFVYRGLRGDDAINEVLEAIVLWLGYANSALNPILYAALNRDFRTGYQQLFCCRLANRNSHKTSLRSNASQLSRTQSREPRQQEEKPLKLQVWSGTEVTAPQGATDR

| SMILES | target | assay | system | conditions | quantity | value |
| --- | --- | --- | --- | --- | --- | --- |
| CCCC(=O)[O-].[Na+] | HDAC1 | inhibitor |  |  | IC50 | 175 µM |
| C[C@@]12OC(=O)[C@]1([C@@H](O)[C@@H]1C=CCCC1)NC(=O)[C@@H]2CCCl | Saccharomyces cerevisiae 20S proteasome β5 | chymotrypsin-like activity |  |  | IC50 | 0.0014 µM |
| CC(C)(C)NC(=O)N[C@H](C(=O)N1C[C@H]2[C@@H]([C@H]1C(=O)NC(CC1CCC1)C(=O)C(N)=O)C2(C)C)C(C)(C)C (stereo partly drawn) | 3C-like protease |  |  |  | IC50 | 4.13 ± 0.61 µM |
| CCCCC/C=C\C/C=C\C/C=C\C/C=C\CCCC(=O)NCCO | MAO-A, pig | inhibitor | brain cortex mitochondria | with: serotonin | IC50 | 750 µM |
| CCCc1nn(C)c2c(=O)[nH]c(-c3cc(S(=O)(=O)N4CCN(C)CC4)ccc3OCC)nc12 | PDE7 |  |  |  | IC50 | > 10 µM |
| CC(=O)N[C@H]1[C@H](Oc2ccccc2-c2cccc(C(=O)O)c2)O[C@H](CO)[C@H](O)[C@@H]1O | FmlH adhesin | binding to serine-linked TF antigen, inhibitor, ELISA |  |  | IC50 | 0.64 µM |
| NC(=O)[C@@H]1CC[C@@H]2CN1C(=O)N2OS(=O)(=O)O | PBP4 |  |  | highest tested 50 µM | IC50 | > 50 µM |
| C=CCN(CC=C)CCc1c[nH]c2ccc(OC)cc12 | HRH2 |  |  |  | Ki | > 10 µM |
| N#CSCCOc1ccc(Oc2ccccc2)cc1 | squalene synthase Trypanosoma cruzi | inhibitor | glycosomes of epimastigotes |  | IC50 | 0.088 µM |
| C[C@H](NC(=O)Cc1cc(F)cc(F)c1)C(=O)N[C@H]1N=C(c2ccccc2)c2ccccc2N(C)C1=O | amyloid precursor protein | amyloid-beta production, inhibitor | CHO |  | IC50 | 0.0003 µM |
| C=CCN(CC=C)CCc1c[nH]c2ccccc12 | HRH2 | binding | cloned human receptor | with: [3H]tiotidine | Ki | > 10 µM |
| CC(C)CCCCC/C=C/C=C/C(=O)N[C@H](C(=O)N[C@H]1C[C@@H](O)CCNC(=O)/C=C/[C@H](C)NC1=O)[C@@H](C)O | yeast proteasome β2 subunit | inhibitor | purified yeast proteasome |  | IC50 | 0.024 µM |
| CC(C)=CCC/C(C)=C/Cc1cc(-c2coc3cc(O)ccc3c2=O)ccc1O | STAT3 | reporter gene | Hep3B | with: IL-6 | IC50 | 0.81 ± 0.15 µM |
| COc1ccc(/C=C\c2cc(OC)c(OC)c(OC)c2)cc1OP(=O)(O)O | tubulin | tubulin assembly, inhibitor |  |  | IC50 | > 40 µM |
| CCN[C@@H](C)Cc1ccc2ccccc2c1 | serotonin transporter | serotonin uptake, inhibitor |  | high internal K+ | IC50 | 4 µM |
| O=C(O)COc1ccc(Cl)cc1 | Torpedo CLC-0 chloride channel | chloride current, inhibitor |  | intracellular application, -150 mV | IC50 | ~1000 µM |
| CC1(C)CCC(C)(C)c2cc(C3(c4ccc5cc(C(=O)O)ccc5c4)SCCS3)ccc21 | CYP26A1 | enzyme activity, inhibitor |  | with: 9-cis-retinoic acid | IC50 | 0.06 µM |
| CN[C@@H]1[C@@H](O)[C@@H](O[C@@H]2[C@@H](O)[C@H](O[C@H]3O[C@H]([C@@H](C)O)[C@@H](O)[C@H](O)[C@H]3N)[C@@H](N)C[C@H]2N)OC[C@]1(C)O | Escherichia coli ribosome | translation, inhibitor, refers to: firefly luciferase | Escherichia coli S30 lysate |  | IC50 | 0.009 ± 0.002 µM |
| NC(CC(=O)Nc1ccc2c(c1)Cc1cc(F)ccc1-2)C(=O)O (stereo not drawn) | EAAT2 | D-aspartate uptake, inhibitor | COS-17.2 expressing EAAT2 | with: [3H]D-aspartic acid | IC50 | 0.003 µM |
| Brc1ccc(CN2CCC(CCOC(c3ccccc3)c3ccccc3)CC2)cc1 | norepinephrine transporter | reuptake, inhibitor |  |  | IC50 | 0.479 ± 0.068 µM |
| O=C(Cc1ccc(C(F)(F)F)cc1C(F)(F)F)N[C@@H]1N=C(c2ccccc2)c2ccccc2N(CC(F)(F)F)C1=O | IKs potassium current | ion current, inhibitor |  |  | IC50 | 0.027 µM |

For quick reference, copied from above:
| SMILES | target | assay | system | conditions | quantity | value |
| --- | --- | --- | --- | --- | --- | --- |
| Brc1ccc(CN2CCC(CCOC(c3ccccc3)c3ccccc3)CC2)cc1 | norepinephrine transporter | reuptake, inhibitor |  |  | IC50 | 0.479 ± 0.068 µM |
| CC(C)(C)NC(=O)N[C@H](C(=O)N1C[C@H]2[C@@H]([C@H]1C(=O)NC(CC1CCC1)C(=O)C(N)=O)C2(C)C)C(C)(C)C (stereo partly drawn) | 3C-like protease |  |  |  | IC50 | 4.13 ± 0.61 µM |
| C=CCN(CC=C)CCc1c[nH]c2ccccc12 | HRH2 | binding | cloned human receptor | with: [3H]tiotidine | Ki | > 10 µM |
